# Measurements from different studies.
# Each numbered part is a random draw from the data of one study; scales do not carry over between parts.
# Chain of UniProt Q9UQ88 (whole entry, looked up): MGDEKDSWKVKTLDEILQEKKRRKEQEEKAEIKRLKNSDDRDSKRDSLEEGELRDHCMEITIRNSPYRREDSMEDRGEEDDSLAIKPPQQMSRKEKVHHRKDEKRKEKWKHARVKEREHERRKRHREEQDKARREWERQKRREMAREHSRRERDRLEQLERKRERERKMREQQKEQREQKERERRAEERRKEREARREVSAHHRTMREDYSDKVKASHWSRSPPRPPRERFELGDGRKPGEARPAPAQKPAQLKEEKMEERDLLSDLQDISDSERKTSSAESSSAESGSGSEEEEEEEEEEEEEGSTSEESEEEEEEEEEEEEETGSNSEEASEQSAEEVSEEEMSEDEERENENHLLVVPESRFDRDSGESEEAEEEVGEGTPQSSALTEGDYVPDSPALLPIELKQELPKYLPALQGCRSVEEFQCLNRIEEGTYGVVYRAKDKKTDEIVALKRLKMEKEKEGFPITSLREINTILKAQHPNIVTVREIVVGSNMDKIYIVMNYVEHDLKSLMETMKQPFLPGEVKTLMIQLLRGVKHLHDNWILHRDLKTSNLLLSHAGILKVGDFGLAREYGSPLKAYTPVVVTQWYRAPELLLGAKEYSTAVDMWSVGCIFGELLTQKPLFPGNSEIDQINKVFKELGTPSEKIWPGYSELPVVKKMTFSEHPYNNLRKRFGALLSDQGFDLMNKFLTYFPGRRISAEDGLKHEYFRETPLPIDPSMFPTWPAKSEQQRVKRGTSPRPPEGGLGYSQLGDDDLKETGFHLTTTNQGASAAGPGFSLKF
# Chain of UniProt P27037 (whole entry, looked up): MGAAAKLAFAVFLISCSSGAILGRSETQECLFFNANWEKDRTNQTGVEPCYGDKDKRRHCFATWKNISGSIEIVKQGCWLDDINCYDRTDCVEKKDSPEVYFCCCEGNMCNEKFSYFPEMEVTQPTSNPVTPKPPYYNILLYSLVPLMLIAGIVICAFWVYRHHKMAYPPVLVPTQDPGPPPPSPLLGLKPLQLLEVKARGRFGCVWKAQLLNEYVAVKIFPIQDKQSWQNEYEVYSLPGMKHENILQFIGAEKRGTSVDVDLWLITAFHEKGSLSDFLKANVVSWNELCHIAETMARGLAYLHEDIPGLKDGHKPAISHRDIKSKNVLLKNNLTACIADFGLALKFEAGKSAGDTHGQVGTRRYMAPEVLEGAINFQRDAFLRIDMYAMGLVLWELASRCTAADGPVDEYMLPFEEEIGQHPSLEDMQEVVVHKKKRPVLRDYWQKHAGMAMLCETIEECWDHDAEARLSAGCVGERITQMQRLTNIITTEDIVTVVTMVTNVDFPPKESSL
# Chain of UniProt P57059 (whole entry, looked up): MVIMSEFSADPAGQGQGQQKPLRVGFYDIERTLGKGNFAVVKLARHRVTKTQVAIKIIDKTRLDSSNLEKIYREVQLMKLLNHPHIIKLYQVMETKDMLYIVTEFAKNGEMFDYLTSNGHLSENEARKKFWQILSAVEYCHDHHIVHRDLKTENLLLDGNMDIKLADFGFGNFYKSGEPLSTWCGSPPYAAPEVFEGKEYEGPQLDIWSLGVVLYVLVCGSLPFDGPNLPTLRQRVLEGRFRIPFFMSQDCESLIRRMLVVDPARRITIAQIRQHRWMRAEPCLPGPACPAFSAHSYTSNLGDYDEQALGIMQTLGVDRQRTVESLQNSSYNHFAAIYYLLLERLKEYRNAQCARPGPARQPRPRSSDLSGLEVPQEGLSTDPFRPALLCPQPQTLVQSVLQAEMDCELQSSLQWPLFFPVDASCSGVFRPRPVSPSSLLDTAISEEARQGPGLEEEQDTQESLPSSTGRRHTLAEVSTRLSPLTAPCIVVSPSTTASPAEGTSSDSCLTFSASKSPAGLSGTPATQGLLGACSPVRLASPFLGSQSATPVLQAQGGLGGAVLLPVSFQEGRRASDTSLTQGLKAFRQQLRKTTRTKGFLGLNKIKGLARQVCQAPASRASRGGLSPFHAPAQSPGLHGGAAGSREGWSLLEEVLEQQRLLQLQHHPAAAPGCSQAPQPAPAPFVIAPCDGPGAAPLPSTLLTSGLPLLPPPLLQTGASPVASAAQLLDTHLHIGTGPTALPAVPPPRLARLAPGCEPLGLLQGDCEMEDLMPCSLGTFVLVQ
# Chain of UniProt P42684 (whole entry, looked up): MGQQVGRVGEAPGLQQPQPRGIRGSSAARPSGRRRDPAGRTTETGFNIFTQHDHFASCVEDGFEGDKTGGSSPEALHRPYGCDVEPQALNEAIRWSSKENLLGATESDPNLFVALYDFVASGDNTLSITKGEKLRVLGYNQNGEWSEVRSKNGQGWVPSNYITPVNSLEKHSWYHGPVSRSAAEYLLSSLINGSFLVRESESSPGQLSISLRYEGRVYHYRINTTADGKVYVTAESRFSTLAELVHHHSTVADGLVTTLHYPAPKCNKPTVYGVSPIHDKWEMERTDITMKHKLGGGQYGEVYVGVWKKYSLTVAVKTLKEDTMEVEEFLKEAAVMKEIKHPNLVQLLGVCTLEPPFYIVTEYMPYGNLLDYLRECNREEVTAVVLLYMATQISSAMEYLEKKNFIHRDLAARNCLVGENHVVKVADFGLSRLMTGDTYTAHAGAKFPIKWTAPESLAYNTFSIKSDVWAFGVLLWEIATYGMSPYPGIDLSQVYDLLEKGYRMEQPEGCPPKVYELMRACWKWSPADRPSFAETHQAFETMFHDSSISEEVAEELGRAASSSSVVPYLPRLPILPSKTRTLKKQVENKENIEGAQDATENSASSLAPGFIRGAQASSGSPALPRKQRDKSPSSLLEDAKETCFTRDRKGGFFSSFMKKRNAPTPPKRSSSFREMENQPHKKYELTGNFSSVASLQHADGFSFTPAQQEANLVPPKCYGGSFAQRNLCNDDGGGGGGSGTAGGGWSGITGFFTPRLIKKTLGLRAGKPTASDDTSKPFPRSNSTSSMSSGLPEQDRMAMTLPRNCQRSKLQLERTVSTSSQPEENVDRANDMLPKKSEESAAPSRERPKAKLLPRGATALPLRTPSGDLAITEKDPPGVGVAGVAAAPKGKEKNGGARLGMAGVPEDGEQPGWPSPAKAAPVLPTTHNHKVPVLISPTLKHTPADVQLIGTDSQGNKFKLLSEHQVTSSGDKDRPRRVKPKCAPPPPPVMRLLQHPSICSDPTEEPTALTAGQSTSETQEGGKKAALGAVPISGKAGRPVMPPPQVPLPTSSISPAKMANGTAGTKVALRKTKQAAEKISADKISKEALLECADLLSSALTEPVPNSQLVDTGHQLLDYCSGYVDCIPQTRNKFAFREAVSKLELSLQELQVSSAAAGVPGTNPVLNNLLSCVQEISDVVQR
# Chain of UniProt P78356 (whole entry, looked up): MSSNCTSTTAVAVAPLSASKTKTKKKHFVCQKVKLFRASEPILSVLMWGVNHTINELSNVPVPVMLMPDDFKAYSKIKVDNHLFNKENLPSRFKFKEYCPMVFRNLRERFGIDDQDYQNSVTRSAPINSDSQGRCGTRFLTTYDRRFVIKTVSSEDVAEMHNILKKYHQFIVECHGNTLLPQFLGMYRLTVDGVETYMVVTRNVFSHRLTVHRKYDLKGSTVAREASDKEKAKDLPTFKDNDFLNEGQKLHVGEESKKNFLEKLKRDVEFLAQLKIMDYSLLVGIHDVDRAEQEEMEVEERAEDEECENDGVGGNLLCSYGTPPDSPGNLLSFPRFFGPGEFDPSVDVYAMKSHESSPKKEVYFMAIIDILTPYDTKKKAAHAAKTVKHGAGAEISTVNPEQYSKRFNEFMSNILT
# Chain of UniProt Q96Q40 (whole entry, looked up): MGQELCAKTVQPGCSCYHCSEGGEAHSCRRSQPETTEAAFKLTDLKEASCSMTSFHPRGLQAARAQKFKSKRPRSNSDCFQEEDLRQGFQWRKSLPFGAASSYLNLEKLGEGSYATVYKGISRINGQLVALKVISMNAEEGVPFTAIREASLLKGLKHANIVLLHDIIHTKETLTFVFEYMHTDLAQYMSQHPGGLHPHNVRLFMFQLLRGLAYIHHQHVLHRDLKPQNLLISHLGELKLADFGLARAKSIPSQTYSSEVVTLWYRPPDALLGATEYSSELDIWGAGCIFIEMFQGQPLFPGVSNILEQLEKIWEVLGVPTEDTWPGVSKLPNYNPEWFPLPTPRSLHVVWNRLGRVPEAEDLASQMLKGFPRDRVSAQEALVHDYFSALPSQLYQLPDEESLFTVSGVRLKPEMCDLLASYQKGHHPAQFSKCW
# Chain of UniProt P49760 (whole entry, looked up): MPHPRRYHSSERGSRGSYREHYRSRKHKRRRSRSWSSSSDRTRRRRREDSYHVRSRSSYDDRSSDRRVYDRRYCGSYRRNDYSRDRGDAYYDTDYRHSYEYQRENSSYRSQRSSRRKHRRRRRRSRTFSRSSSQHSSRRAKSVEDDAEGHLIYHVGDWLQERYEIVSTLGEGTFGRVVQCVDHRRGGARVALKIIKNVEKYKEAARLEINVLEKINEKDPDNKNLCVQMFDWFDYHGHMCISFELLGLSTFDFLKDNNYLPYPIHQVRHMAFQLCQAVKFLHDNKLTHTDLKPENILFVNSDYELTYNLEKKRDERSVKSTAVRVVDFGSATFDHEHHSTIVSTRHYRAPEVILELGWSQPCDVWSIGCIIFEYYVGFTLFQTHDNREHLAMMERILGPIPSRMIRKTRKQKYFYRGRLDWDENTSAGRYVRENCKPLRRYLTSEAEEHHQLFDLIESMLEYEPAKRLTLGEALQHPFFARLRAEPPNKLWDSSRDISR

# Set 1
# Target: Interferon regulatory factor 5, full length, phosphomimetic (IRF5, Homo sapiens, UniProt Q13568-2, residues 1-514, S451D/S453D/S456D/S462D)
# Technique: protein-binding microarray
# Molecule type: double-stranded DNA, one strand shown
# Sample: in vitro
# Tested at: 940 nM top
# Notes: 60-bp whole probe
# Together with: salmon DNA 0.4 mg/ml
# Baseline: random background probes
# Direction: higher = stronger binding
# Constant ends, left off below: GCCTAGCAC … GTCTTGATTCGCTTGACGCTGCTG
Oligonucleotide,fitted relative affinity
CACGGTTTCGGGTATCGGGACGTGCTA,8.71 z-score
TTGGGTTTCGACACTGGGTTAGTGCTA,6.62 z-score
TCACAAATGCCCTCTCCAACTGTGCTA,0.456 z-score
TTCGGTTTCCTTATCCTTTAGTGCTAG,2.35 z-score
TCAGGTTTCTATATTTGACTGTGCTAG,3.56 z-score
GACGGTCTCAGTTTCGGGACGTGCTAG,5.04 z-score
TTTGGTTCCGGTTTCGGTTAGTGCTAG,10.3 z-score
GACGAACTGATTTTCGAGACGTGCTAG,0.302 z-score

# Set 2
# Target: Myc proto-oncogene protein, bHLH-zipper, MAX partner unstated (MYC, Homo sapiens, UniProt P01106, residues 368-449)
# Chain of UniProt P01106 (368-449, looked up): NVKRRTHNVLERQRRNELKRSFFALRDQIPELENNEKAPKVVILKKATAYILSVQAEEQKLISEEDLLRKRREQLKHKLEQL
# Technique: protein-binding microarray
# Molecule type: double-stranded DNA, one strand shown
# Sample: in vitro
# Tested at: not given
# Notes: k-mer, scored over probes, only values ≥0.25
# Direction: higher = stronger binding
Oligonucleotide,E-score
CATGTTTA,0.369
CGCCTCCC,0.29
AAACCATG,0.354
GCGCCACA,0.274
GTGGCGTA,0.287
CATGGAAC,0.287
ACGAGCGG,0.27
CCCACCAC,0.327

# Set 3
# SMILES: CC(=O)N1CCC(c2ccc(C(=O)NC(=N)N)cc2C(F)(F)F)CC1
# Tested at: 1 µM
target,effect on,technique,remaining binding
"SIK1 (Homo sapiens, UniProt P57059)",,competition binding,100%
"ERBB4 (Homo sapiens, UniProt Q15303)",cell-free assay,competition with immobilised ligand,100%
"FLT3 (Homo sapiens, UniProt P36888, D835Y)",cell-free assay,competition with immobilised ligand,100%
"IRAK3 (Homo sapiens, UniProt Q9Y616)",cell-free assay,competition with immobilised ligand,99%
"CDK2 (Homo sapiens, UniProt P24941)",cell-free assay,competition with immobilised ligand,100%
"PIP4K2B (Homo sapiens, UniProt P78356)",cell-free assay,competition with immobilised ligand,77%
"STK39 (Homo sapiens, UniProt Q9UEW8)",cell-free assay,competition with immobilised ligand,90%
"RIPK4 (Homo sapiens, UniProt P57078)",cell-free assay,competition with immobilised ligand,76%
"ABL2 (Homo sapiens, UniProt P42684)",cell-free assay,competition with immobilised ligand,100%
"Myosin-IIIb (MYO3B, Homo sapiens, UniProt Q8WXR4)",binding,competition with immobilised ligand,100%
"ACVR2A (Homo sapiens, UniProt P27037)",cell-free assay,competition with immobilised ligand,100%
"MAP2K6 (Homo sapiens, UniProt P52564)",cell-free assay,competition with immobilised ligand,100%
"PAK1 (Homo sapiens, UniProt Q13153)",cell-free assay,competition with immobilised ligand,100%
"Aurora kinase B (AURKB, Homo sapiens, UniProt Q96GD4)",cell-free assay,competition with immobilised ligand,100%
"CLK2 (Homo sapiens, UniProt P49760)",cell-free assay,competition with immobilised ligand,100%
"DSTYK (Homo sapiens, UniProt Q6XUX3)",cell-free assay,competition with immobilised ligand,94%
"CDK15 (Homo sapiens, UniProt Q96Q40)",cell-free assay,competition with immobilised ligand,100%
"CDK11A (Homo sapiens, UniProt Q9UQ88)",binding,competition with immobilised ligand,92%

# Set 4
# Target: Hepatocyte nuclear factor 3-alpha (Foxa1, Mus musculus, UniProt P35582, residues 1-468, full length assumed)
# Technique: EMSA with sequencing
# Molecule type: double-stranded DNA, one strand shown
# Sample: in vitro
# Tested at: 10 and 20 nM
# Notes: whole designed probe, mean of two concentrations, ends assumed
# Baseline: negative control set to 0
# Direction: higher = stronger binding
# Constant ends, left off below: GTGAGCGGTGCCCATTGATGGGGAAC … TTTCACTGGGATCGTGGGGAC
# Residues (chain): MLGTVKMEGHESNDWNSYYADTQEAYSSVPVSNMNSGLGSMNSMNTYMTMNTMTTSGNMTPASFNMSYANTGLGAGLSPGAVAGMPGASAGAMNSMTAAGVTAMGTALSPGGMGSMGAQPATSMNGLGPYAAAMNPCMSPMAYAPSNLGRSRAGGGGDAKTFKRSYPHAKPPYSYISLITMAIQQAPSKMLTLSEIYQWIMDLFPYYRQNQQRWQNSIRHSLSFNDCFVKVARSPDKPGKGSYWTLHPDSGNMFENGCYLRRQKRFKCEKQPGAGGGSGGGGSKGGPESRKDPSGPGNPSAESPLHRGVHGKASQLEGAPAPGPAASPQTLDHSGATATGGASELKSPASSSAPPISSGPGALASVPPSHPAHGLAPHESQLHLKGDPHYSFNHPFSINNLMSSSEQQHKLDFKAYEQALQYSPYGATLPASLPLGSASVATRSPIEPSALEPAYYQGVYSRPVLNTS
Oligonucleotide,normalised bound fraction [ratio]
GATATTTCCTTCTTGATATCCCTGTAGTCCCTCAAATTGTCTATATTCTGAGTCATTTCTAAAATAAAAGGCCTCAATGCCAAGAGTTGTACTTATTTGCTTTATAACCTGTTTGGGTAAATTTACTTCAGAGGTATCATTTTCTGGAGATACTTTCTCAGGTCCATATTTTAACTCCAAATCTGAAAGAAAT,0.193
ATCTTCCCCCTCTTCCTTGCCCCACCAGCTCACCTTCCCGGGTTATTTGCACAAAGGAAAATAAATAAAGCCGGCATTCGTTAACCCTCTTCTGGCGCAAACTGCTGTTTGCTCTGCATGAATCATGGTCCTTACGCGAGGCGTGGCTCCGGGAGAGCAAAGCACCGTGTCAGGCGCATGATCCGGGGTGGCC,0.368
AATCAGTTAGAAAAAGATAACCTAGTAGAAAAATGGGCAGAAGGCTTGAGTAGACATTTCTCAAAGAAAACATCCATGTGGAAAAATAATTTAGCAATTTAAGCCAACCATGTGAAAAGGTACCTGACTTCATTAATCATCAAGGGAATGCAAATGAACGTCACGATGCACCACTGCACACTCACCGGAAGGC,-0.0122
GTGTGTGCGCGCGCGTGTGTGTGTGTTTTCTTAAGCCGGGCTATTCAAACCCTGCTGCAATTCTCCGGTAAACAATGTTACATGGGGCATAATGCAAATAAACGGATTGCAAACGGCGCGCAATGATTCATTTGCAGCCGGCCCGGTGGAGCAGCCAGTGCCGGATTTCTCCCTTTTTTTGCAGATCTGCAGA,0.386
CCCTCAAGACACATAATATTTGCAGAATTCTGTGGACAGAGGATTTAGTACACACTGCTTTCATCCTGTGATTGCCCTAAGTACTTTCAGAAATGTAAACAGTCCTGACACATGTGGTCTTTGAATATGGTCAAACACCTCATTCTTCAGCTTTGGTATCTCATAACAAATTGTTGCATAAAGTATGAAAAAT,0.36
ACTAAAGACGCTCTGCAATATTCATACCAAGAAGAATCCTTGGAAGAAAAACTAAGGAAACAATTCTAGCTTTCAAATCTAGAGTTGCTGCTAAGTAAACATAAAGATTTACTCAAGAAGATCCCTGAAATAATTCCTAAAGAAAATGAAAGGTCTTTAGAAACCAGGAAAATAAGTGTTAACTTGAAGTCTG,0.489
ATCTTCCCCCTCTTCCTTGCCCCACCAGCTCACCTTCCCGGGTATCTGCAAATAAGTATTTATTTTCAAGCCGGCATTCGTTAACCCTCTTCACGCGCATACTGCCAGAGCAAACAGATGAATCATGGTCCTTTGGCGACGCCAGGCTCCGGGAGAGCAAAGCACCGTGTCAGGGCCATGATCCGGGGTGGCC,0.245
TATGTTTATTTCATTTTCTCCACAAGAGATTCTTTCTCACAGTCAGAACGTGTGGCTTAGCACTACCTAGGGAGCTTGTTTGCCTCCATTTTCTTGTTTACTTAACAGAGAATGGGAGGCAGAAGTTAAAGCCCAGCAATGTCTTTTAGCTACACTTTGTATTAGTACTTCCATCTTCCTCTTCTTAACTAGG,0.537

# Further values, each from its own experiment
SMILES,target,action,endpoint,result
Cc1noc2c(N(C)C)cc(-c3ccc(Cl)cc3)nc12,"Beta-1 adrenergic receptor (ADRB1, Homo sapiens, UniProt P08588)",antagonist,IC50,≥ 100 µM

# A few entries again (set 2):
Oligonucleotide,E-score
CCCACCAC,0.327
CGCCTCCC,0.29
CATGGAAC,0.287
GCGCCACA,0.274
ACGAGCGG,0.27
AAACCATG,0.354
CATGTTTA,0.369
